# Experimental data of several laboratories.
# Lines come from different studies, so protocols differ. ± marks the error that the study gave.
# Organism: Trypanosoma brucei brucei
SMILES,test,system,setting,IC50
CCOC(=O)C(CC)NC(=O)CN1C(=O)S/C(=C\c2ccc([N+](=O)[O-])cc2)C1=O (stereo not shown),cell viability,GUTat3.1,72 h,> 66 µM
O=[N+]([O-])c1ccc(/C=N/N=C/c2ccc(Cl)cc2)s1,"parasite growth, CellTiter-Glo",GUTat3.1 bloodstream form,72 h,0.84 ± 0.42 µM
O=C(Nc1ccc2c(c1)CN(c1ccc(Cl)c(Cl)c1)C2=O)N1CCN(c2ccccc2)CC1,"parasite growth, resazurin",Squib 427,3 d,27.6 µM
O=[N+]([O-])c1ccc(/C=N/N=C/c2ccc([N+](=O)[O-])s2)cc1,"parasite growth, CellTiter-Glo",GUTat3.1 bloodstream form,72 h,0.91 ± 0.51 µM
CCC(NC(=O)CN1C(=O)N/C(=C\c2ccc(C)cc2)C1=O)C(=O)OC (stereo not shown),cell viability,GUTat3.1,72 h,> 64 µM
O=C(Nc1ccc2c(c1)CN(c1ccc(F)c(F)c1)C2=O)N1CCN(c2ccc(Cl)cc2)CC1,"parasite growth, resazurin",Squib 427,3 d,44.7 µM
CCCCCCCCCCC[C@@H](O)CC(=O)N[C@@H](CC(C)C)C(=O)N[C@H](CCC(=O)O)C(=O)N[C@H]1C(=O)N[C@H]([C@@H](C)CC)C(=O)N[C@H](CC(C)C)C(=O)N[C@H](CO)C(=O)N[C@@H](CC(C)C)C(=O)N[C@@H](CC(C)C)C(=O)N[C@H](CO)C(=O)N[C@@H](C(C)C)C(=O)O[C@@H]1C,cell growth,bloodstream form,"24 or 48 h, 37 °C",6 µM
O=C(Nc1ccc2c(c1)CN(c1ccccc1)C2=O)N1CCN(c2ccc(F)cc2)CC1,"parasite growth, resazurin",Squib 427,3 d,> 64 µM
O=[N+]([O-])c1ccc(/C=N/N=C/c2ccc(Br)cc2)s1,"parasite growth, CellTiter-Glo",GUTat3.1 bloodstream form,72 h,0.82 ± 0.45 µM
CCOC(=O)C(CC)NC(=O)CN1C(=O)S/C(=C\c2ccc(C)cc2)C1=O (stereo not shown),cell viability,GUTat3.1,72 h,> 59 µM

# Excerpt of the above:
SMILES,test,system,setting,IC50
CCOC(=O)C(CC)NC(=O)CN1C(=O)S/C(=C\c2ccc(C)cc2)C1=O (stereo not shown),cell viability,GUTat3.1,72 h,> 59 µM
